Assay results of several laboratories.
Parts stem from different laboratories: compare values within a part only.

Sample 1 — effect on: binding; method: phage display NGS; form: peptide; tested at: concentration not given; setting: panning round 2; baseline: input library
Target: UDP-N-acetylglucosamine--peptide N-acetylglucosaminyltransferase 110 kDa subunit (OGT, Homo sapiens, UniProt O15294)
Construct (O15294 1-1046): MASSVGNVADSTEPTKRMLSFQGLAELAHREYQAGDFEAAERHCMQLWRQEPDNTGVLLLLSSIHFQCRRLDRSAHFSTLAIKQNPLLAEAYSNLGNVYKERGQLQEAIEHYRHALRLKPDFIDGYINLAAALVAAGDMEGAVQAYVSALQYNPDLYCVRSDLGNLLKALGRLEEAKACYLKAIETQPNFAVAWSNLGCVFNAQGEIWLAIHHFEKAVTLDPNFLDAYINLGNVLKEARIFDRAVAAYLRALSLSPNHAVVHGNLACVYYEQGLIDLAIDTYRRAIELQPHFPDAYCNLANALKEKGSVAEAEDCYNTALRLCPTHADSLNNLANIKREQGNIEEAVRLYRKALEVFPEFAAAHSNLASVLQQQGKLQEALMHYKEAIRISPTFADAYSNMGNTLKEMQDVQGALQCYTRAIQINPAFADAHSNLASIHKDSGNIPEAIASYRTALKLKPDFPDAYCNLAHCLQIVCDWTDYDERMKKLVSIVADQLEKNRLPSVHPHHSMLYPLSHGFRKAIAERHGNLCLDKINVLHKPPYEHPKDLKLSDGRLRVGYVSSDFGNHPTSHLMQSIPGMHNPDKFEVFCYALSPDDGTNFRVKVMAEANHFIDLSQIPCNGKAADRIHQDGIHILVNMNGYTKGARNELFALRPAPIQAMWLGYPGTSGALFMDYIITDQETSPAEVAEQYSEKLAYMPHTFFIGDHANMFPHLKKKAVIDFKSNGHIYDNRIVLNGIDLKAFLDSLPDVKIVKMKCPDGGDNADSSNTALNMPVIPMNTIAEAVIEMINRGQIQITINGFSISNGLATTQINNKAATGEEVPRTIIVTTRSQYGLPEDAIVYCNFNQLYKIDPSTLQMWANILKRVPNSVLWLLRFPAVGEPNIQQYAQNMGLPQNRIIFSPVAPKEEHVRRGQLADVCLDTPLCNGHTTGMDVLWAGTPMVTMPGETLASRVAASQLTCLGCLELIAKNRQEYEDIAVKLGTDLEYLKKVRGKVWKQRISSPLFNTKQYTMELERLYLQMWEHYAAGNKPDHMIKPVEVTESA
`DFMGLEFMPVYQIRI` — result for “enrichment fold change”: 14.8.
`EEQEHPFTPHYQIII`: “enrichment fold change” 20.4.
`QDLMPYYPIQYYQER`: “enrichment fold change” 16.
For `HYDHQHRFPQLAKSA`, “enrichment fold change” read 4.06.
`HTPWRPQRNEHHRYV`: “enrichment fold change” 6.2.

Sample 2 — matrix: plasma; route: intravenous
SMILES: O=C1CCC(N2Cc3c(ccc4c3OCC43CCN(Cc4ccccc4)CC3)C2=O)C(=O)N1 (stereo not shown)
It gave 1.2 L/h/kg for clearance (Sprague Dawley rat, male; 1.0 mg/kg).
The clearance was 2.38 L/h/kg (male CD-1 mouse; 1 mg/kg).
For male Sprague-Dawley rat; 1 mg/kg: clearance read 1.25 L/h/kg.

Other studies, line by line
The concentration of `COc1cc(C(=O)OCCCN2CCCN(CCCOC(=O)c3cc(OC)c(OC)c(OC)c3)CC2)cc(OC)c1OC` is reported as 0.124 µg/mL (CD-1 mice, male, brain; subcutaneous, 30 mg/kg, 0.5 h).
`CNC(=O)c1ccc(-c2cnn3ccc(C(=O)N(C)c4ccc(Cl)c(C(=O)OC)c4)cc23)cc1` gave a Cmax of 0.004 µg/mL (female C57BL/6 mouse, plasma; oral, 10 mg/kg/day).

Excerpt of the above (sample 2):
It gave 1.2 L/h/kg for clearance (Sprague Dawley rat, male; 1.0 mg/kg).
